Experimental data from different studies.
Each numbered part is a random draw from the data of one study; scales do not carry over between parts.
Sequence of UniProt Q13283 (whole entry, looked up): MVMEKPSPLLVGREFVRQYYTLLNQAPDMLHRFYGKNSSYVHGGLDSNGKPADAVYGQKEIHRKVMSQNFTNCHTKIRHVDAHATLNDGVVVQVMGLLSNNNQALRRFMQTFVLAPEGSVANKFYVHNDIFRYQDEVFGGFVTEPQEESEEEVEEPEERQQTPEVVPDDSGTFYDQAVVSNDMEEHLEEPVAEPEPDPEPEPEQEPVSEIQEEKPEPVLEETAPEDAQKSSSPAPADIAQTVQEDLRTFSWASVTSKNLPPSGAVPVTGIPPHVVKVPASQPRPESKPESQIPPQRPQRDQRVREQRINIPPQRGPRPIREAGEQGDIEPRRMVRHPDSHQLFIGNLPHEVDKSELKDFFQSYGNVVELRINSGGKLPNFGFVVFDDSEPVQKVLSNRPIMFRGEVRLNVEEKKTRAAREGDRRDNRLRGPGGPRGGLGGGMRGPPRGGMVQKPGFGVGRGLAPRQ

Study 1
Target: TAR DNA-binding protein 43, full length, His tag (TARDBP, Homo sapiens, UniProt Q13148, residues 1-414)
Technique: RNA Bind-n-Seq
Molecule type: RNA
Sample: in vitro
Tested at: 20 nM
Setting: 6-mer, flanks averaged, single round
With: 150 mM LiCl
Relative to: input library
Reading: higher = stronger binding
Sequence	6-mer enrichment (R)
CAUUGG	0.958
AUACAU	0.859
GGUCUA	0.875

Further values, each from its own experiment
UNK zinc fingers 1-6, SBP tag: RING finger protein unkempt homolog, zinc fingers 1-6, SBP tag (UNK, Homo sapiens, UniProt Q9C0B0, residues 30-357)
Sequence of UniProt Q9C0B0 (30-357, looked up): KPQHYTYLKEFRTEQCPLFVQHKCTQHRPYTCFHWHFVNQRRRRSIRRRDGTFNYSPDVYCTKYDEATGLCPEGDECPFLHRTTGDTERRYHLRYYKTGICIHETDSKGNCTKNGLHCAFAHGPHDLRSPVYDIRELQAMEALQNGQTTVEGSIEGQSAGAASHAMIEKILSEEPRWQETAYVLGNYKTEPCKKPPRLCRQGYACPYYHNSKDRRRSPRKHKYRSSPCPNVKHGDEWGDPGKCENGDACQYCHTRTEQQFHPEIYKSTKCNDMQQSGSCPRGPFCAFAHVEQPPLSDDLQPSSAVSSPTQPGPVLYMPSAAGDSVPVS
Molecule	target	assay	test system	setting	how to read	endpoint	result
GGGAGUUCUACAGUCCGACGAUCGUCAUCACUGCUUCUUACCACCUCAAUGAGGUGACGCCUCCCACAACACUUUGUUGGUCCUAGGCUAACCUGAUAAAUCUCUCCACAUUUCAUUUUCUUCUUCUACCCUCCCAUUCACCUCAACAGAGGAUUGAGCAUCA	UNK zinc fingers 1-6, SBP tag	RNA Bind-n-Seq	RNA, in vitro	100 nM, RNA with constant flanks, vertebrate orthologous sites, ends assumed	relative to: input RNA pool, higher = stronger binding	bound/input enrichment	1.21 ratio
GGGAGUUCUACAGUCCGACGAUCGCCCUGUAAUCGUGGAGAUCCCGCACUUUGCCUCCCAUGGCCGUGGAGACCGCGAGCUCGUGGUUCUGAGGAGCGAAAACGGCUCCGUGUUGGAAUUCUCGGGUGUCAAGG	Ras GTPase-activating protein-binding protein 1, full length (G3BP1, Homo sapiens, UniProt Q13283)	RNA Bind-n-Seq	RNA, in vitro	200 nM, whole 134-nt RNA, ends assumed, with: 150 mM KCl	relative to: input library, higher = stronger binding	log2 enrichment	-1.76
CTGGATCC	Histone acetyltransferase KAT6A, winged helix 2, GST fusion (KAT6A, Homo sapiens, UniProt Q92794, residues 85-181)	protein binding microarray	double-stranded DNA, one strand shown, in vitro	not given, 8-mer, flanks averaged, mean of 2 arrays, mostly near background	relative to: not given, higher = stronger binding	E-score	0.0379
GGGAGUUCUACAGUCCGACGAUCAGUCCUGUGCUACACAUCGUAUGUACCGAAUCGGGGUUUUGGGGUUUUGGGGUUUUGGAAAGUAUUAUGUUACGCCGUUCGGAUCUGCACUGGAAUUCUCGGGUGUCAAGG (7-deaza-guanosine replaces G)	Fragile X messenger ribonucleoprotein 1, C-terminal low-complexity region (Fmr1, Mus musculus, UniProt P35922)	RNA Bind-n-Seq	RNA, in vitro	200 nM, whole 134-nt RNA, ends assumed, with: 150 mM LiCl	relative to: input library, higher = stronger binding	log2 enrichment	-0.744
GGGAGUUCUACAGUCCGACGAUCAGAAACCCAAGGAUUCAGGACUGGUUCUAUAAAUAUGCCAAGUAGAUAUGGAACGAACAAUAGAGCCGGACAGCCAAGACCUUAAUGAACUUCACUUUACUUUAUUUUUAUGAGAACUUUCAACAGAGGAUUGAGCAUCA	UNK zinc fingers 1-6, SBP tag	RNA Bind-n-Seq	RNA, in vitro	100 nM, RNA with constant flanks, vertebrate orthologous sites, ends assumed	relative to: input RNA pool, higher = stronger binding	bound/input enrichment	0.848 ratio
PhoQ, residues 284 288 289 292 302 303 SIHMAM	PhoP, residues 12 14 15 18 19 TTLRV (Escherichia coli, UniProt P23836)	Sort-seq, item: YFP reporter	E. coli	PhoQ-PhoP variant library, with: 10 µM Mg2+	relative to: high Mg2+ state, higher = stronger signaling	fold induction	1.44
